Results of several laboratories.
Each line is one published result; not all experiments were run side by side.
Target: Serine/threonine-protein kinase haspin (HASPIN, Homo sapiens, UniProt Q8TF76)
Residues used in one study (Q8TF76 1-798): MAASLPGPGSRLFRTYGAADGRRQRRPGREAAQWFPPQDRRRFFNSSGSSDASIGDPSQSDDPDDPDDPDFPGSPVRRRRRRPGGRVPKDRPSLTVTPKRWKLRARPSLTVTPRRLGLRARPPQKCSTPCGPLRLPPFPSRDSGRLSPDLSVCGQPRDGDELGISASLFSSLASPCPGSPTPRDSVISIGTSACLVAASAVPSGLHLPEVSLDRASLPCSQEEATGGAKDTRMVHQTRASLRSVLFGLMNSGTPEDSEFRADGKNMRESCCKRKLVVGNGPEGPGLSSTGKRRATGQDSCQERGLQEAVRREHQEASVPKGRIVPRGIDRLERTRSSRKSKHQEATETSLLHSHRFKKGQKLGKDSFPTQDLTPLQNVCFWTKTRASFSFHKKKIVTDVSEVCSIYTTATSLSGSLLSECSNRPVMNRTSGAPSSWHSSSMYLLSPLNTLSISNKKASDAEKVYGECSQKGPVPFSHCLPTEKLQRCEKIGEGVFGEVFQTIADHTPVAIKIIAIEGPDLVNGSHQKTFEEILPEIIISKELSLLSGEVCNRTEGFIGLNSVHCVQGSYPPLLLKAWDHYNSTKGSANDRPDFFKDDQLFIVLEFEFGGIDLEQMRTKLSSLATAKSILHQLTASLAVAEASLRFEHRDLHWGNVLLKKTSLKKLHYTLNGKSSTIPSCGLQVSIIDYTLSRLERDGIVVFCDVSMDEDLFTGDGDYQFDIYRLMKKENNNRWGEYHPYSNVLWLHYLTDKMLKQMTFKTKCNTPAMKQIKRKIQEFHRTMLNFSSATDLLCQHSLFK

CN1CCN(Cc2ccc(-c3ccc(CO[C@H]4CCC[C@@H]4NC(=O)c4cc(-c5cnn(C)c5)cnc4N)cc3)cc2)CC1
inhibition (enzyme activity, inhibitor; 0.1 µM): 6%

COc1cc(Nc2nc(C)cc(-c3cnn4nc(OC)ccc34)n2)cc(C(F)(F)F)c1
remaining binding (KINOMEscan binding; 1000 nM; baseline: control): 100%

CNC(=O)C1CCN(c2cc(C)c(F)cc2NC(=O)c2ccc(-c3cc(O)ccc3C)c(C)c2)CC1
remaining binding (binding, competition with immobilised ligand; 1 µM): 72%

Cc1c[nH]c2nccc(-c3ccc(C(=O)N[C@@H]4c5c(F)cc(C(F)F)cc5C[C@@H]4O)cn3)c12
remaining binding (binding, competition with immobilised ligand; 3 µM): 11%

CNC1C[S+]2CC[S+]3CC[S+](C1)[Ru-4]321([N]=C=S)[n]2c3ccc(OC)cc3c3c4c(c5cc(F)c[n+]1c5c32)C(=O)NC4=O (centres unmarked)
remaining binding (KinomeScan; 0.1 µM; baseline: untreated): 81%

Cc1cc(NC(=O)[C@H](O)c2cc(F)cc(F)c2)ccc1-c1cnc(N)c(C(=O)NC(C)C)c1
remaining binding (binding, competition with immobilised ligand; 0.1 µM): 100%

Cc1cnc2nc1Nc1cccc(c1)COC/C=C/COCc1cc(ccc1OCCN1CCOCC1)N2
remaining binding (binding, competition with immobilised ligand; 0.1 µM): 75%

NC(=O)[C@@H](O)C[C@H]1CCc2sc3ncnc(O[C@H]4CC[C@H](N5CCOCC5)CC4)c3c21
inhibition (enzyme activity, inhibitor; 10 µM): 37%

Cc1cccc(O[C@H]2CCC[C@@H](C(C)CNCc3ccncc3)C2)c1 (relative stereo)
inhibition (enzyme activity, inhibitor; 1 µM): -3%

C=CC(=O)N1CCCC(n2c(=O)c3ncccc3n(Cc3ccc(Oc4ccccc4)cc3)c2=O)C1 (centres unmarked)
remaining binding (cell-free assay, competition with immobilised ligand; 1 µM): 75%

C=CC(=O)Nc1cccc(-c2cnc3[nH]cc(C(=O)NC(C)(C)C)c3n2)c1
inhibition (enzyme activity, inhibitor; 0.1 µM): 6%

Nc1ncc(-c2cc(-c3cnn(CC(F)(F)F)c3)ncc2F)nc1C(=O)NC1CNCC(F)C1 (centres unmarked)
remaining activity (enzyme activity; 1 µM; baseline: DMSO control): 95.6%

CN1CC[C@@H](COc2cnc(C#N)cc2-c2ccn3nc(NC(=O)C4CC4)cc3c2)C1
inhibition (enzyme activity, inhibitor; 1 µM): 17%

Nc1ncc2c(n1)-c1c([nH]c3ccc(C4=CCOCC4)cc13)CCC2
remaining binding (binding, competition with immobilised ligand; 1 µM): 71%

Excerpt of the above:
Nc1ncc(-c2cc(-c3cnn(CC(F)(F)F)c3)ncc2F)nc1C(=O)NC1CNCC(F)C1 (centres unmarked)
remaining activity (enzyme activity; 1 µM; baseline: DMSO control): 95.6%
